Measured values from different studies.
Each line is one published result; not all experiments were run side by side. Numbers after ± are the reported error.
Target: Mu-type opioid receptor (Oprm1, Rattus norvegicus, UniProt P33535)
Chain of UniProt P33535 (whole entry, looked up): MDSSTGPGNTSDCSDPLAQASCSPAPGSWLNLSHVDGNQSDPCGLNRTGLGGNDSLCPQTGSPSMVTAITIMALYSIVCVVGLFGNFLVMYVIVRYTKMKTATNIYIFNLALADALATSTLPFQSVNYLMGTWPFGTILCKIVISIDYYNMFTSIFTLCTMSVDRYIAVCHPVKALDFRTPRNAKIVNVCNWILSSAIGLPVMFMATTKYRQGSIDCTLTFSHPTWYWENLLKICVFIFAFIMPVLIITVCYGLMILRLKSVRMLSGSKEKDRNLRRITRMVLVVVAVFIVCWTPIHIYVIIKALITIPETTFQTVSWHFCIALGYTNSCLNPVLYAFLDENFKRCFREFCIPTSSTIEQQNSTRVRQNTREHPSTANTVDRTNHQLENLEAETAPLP

For `Cc1cc(O)cc(C)c1C[C@H](N)C(=O)N[C@@H](C(=O)NCC(=O)N[C@@H](Cc1ccc2ccccc2c1)C(=O)N[C@@H](CC(C)C)C(=O)N[C@@H](CO)C(N)=O)[C@H](C)O`, the EC50 was 1.5 nM (GTPγS binding, agonist, radiometric; cell membranes).
`Cc1cc(O)cc(C)c1CC(N)C(=O)NC1CCNc2ccc(CN3CCC4CCCCC4C3)cc21` (stereo not shown) gave an EC50 of 2 nM (GTPγS binding, agonist, radiometric; cell membranes).
For `Cc1cc(O)cc(C)c1CC(N)C(=O)NC1CCNc2c(C(=O)O)cc(Cc3ccccc3)cc21` (stereo not shown), the EC50 was 4.4 nM (GTPγS binding, agonist, radiometric; cell membranes).
For `CC(C)C[C@H](NC(=O)[C@H](CCCNC(=N)N)NC(=O)[C@H](Cc1ccccc1)NC(=O)[C@H](Cc1ccccc1)NC(=O)[C@H](Cc1ccccc1)N(C)C(=O)CN)C(=O)N[C@@H](CCCNC(=N)N)C(=O)N[C@@H](CCCNC(=N)N)C(=O)N[C@H](C)C(=O)N[C@@H](CCCNC(=N)N)C(=O)N1CCC[C@H]1C(=O)N[C@@H](CCCCN)C(N)=O`, the Ki was 3070 nM (ligand displacement, radioligand).
The EC50 of `Cc1cc(O)cc(C)c1CC(N)C(=O)NC1CCNc2ccc(Cc3ccc4c(c3)OCO4)cc21` (stereo not shown) is reported as 14 nM (GTPγS binding, agonist, radiometric; cell membranes).
For `CCOC(=O)c1cc(Cc2ccccc2)cc2c1NCCC2NC(=O)C(N)Cc1c(C)cc(O)cc1C` (stereo not shown), the EC50 was 4.9 nM (GTPγS binding, agonist, radiometric; cell membranes).
The Ki of `COC(=O)N(C)[C@@H](Cc1ccccc1)C(=O)N[C@@H](Cc1ccccc1)C(=O)N[C@@H](Cc1ccc2ccccc2c1)C(=O)N[C@@H](CCCNC(=N)N)C(=O)N[C@@H](CC(C)C)C(=O)N[C@@H](CCCNC(=N)N)C(=O)N[C@@H](CCCNC(=N)N)C(=O)N[C@H](C)C(=O)N[C@@H](CCCNC(=N)N)C(=O)N1CCC[C@H]1C(=O)N[C@@H](CCCCN)C(N)=O` is reported as 53.8 nM (ligand displacement, radioligand).
`O=C1N[C@@H](Cc2ccccc2)C(=O)N2CCC[C@@H]2C(=O)N[C@@H](Cc2ccccc2)C(=O)N[C@H]1Cc1c[nH]c2ccccc12` gave a Kb of 10.2 ± 1.7 nM (antagonist).
`Cc1cc(O)cc(C)c1CC(N)C(=O)NC1CCNc2c(Br)cc(Cc3ccccc3)cc21` (stereo not shown) has an EC50 of 1.2 nM (GTPγS binding, agonist, radiometric; cell membranes).
`Cc1cc(O)cc(C)c1CC(N)C(=O)NC1CCNc2ccc(CN3CCCCCC3)cc21` (stereo not shown) gave an EC50 of 25 nM (GTPγS binding, agonist, radiometric; cell membranes).
`Cc1cc(O)cc(C)c1CC(N)C(=O)NC1CCNc2c(CCc3ccccc3)cc(Cc3ccccc3)cc21` (stereo not shown) gave an EC50 of 44 nM (GTPγS binding, agonist, radiometric; cell membranes).
`Cc1cc(O)cc(C)c1CC(N)C(=O)NC1CCNc2ccc(CN3CCc4ccccc4C3)cc21` (stereo not shown) has an EC50 of 0.4 nM (GTPγS binding, agonist, radiometric; cell membranes).
With `CCCC[C@@H]1NC(=O)[C@H](Cc2ccccc2)NC(=O)CNC(=O)[C@H](NC(=O)[C@@H](N)Cc2ccc(O)cc2)C(C)(C)SSC(C)(C)[C@H](C(=O)N[C@@H](Cc2c[nH]c3ccccc23)C(=O)NCc2cc(C(F)(F)F)cc(C(F)(F)F)c2)NC(=O)[C@@H]2CCCN2C1=O` the EC50 was 140 nM (agonist).

For quick reference, copied from above:
`Cc1cc(O)cc(C)c1CC(N)C(=O)NC1CCNc2ccc(CN3CCC4CCCCC4C3)cc21` (stereo not shown) gave an EC50 of 2 nM (GTPγS binding, agonist, radiometric; cell membranes).
With `CCCC[C@@H]1NC(=O)[C@H](Cc2ccccc2)NC(=O)CNC(=O)[C@H](NC(=O)[C@@H](N)Cc2ccc(O)cc2)C(C)(C)SSC(C)(C)[C@H](C(=O)N[C@@H](Cc2c[nH]c3ccccc23)C(=O)NCc2cc(C(F)(F)F)cc(C(F)(F)F)c2)NC(=O)[C@@H]2CCCN2C1=O` the EC50 was 140 nM (agonist).
